Measured values pooled from the literature.
Lines come from different studies, so protocols differ. Several values in a cell are separate wells, animals, samples, runs or records. ± gives the spread as reported.
CDK5 with p25: Cyclin-dependent kinase 5, with p25 (CDK5, Homo sapiens, UniProt Q00535)
Genome polyprotein NS3 helicase domain: Genome polyprotein, NS3 helicase domain (Hepatitis C virus genotype 1b, UniProt Q9WMX2)
HLA class I histocompatibility antigen, B alpha chain: HLA class I histocompatibility antigen, B alpha chain (Homo sapiens, UniProt P01889)
B1: chain MSEILPYGEDKMGRFGADPEGSDLSFSCRLQDTNSFFAGNQAKRPPKLGQIGRAKRVVIEDDRIDDVLKGMGEKPPSGV

Molecule	tested on	assay	test system	setting	scale	endpoint	value
β-melibiose	Frizzled-8 (Xenopus laevis, UniProt Q91719)	binding, biolayer interferometry		25 °C, together with: immobilized biotinylated carbohydrate		association rate constant	15800 M⁻¹ s⁻¹
Tannic acid	Protein disulfide-isomerase, a' domain (P4HB, Homo sapiens, UniProt P07237)	di-eosin-GSSG reductase activity, inhibitor		20 µM, isolated a' domain		inhibition	inhibited
KEAFWDRCLSVINLMSSKMLQLNA	CDK5 with p25	phosphotransferase activity, radiometric	peptide	concentration not given, 10% DMSO, together with: histone substrate	baseline: p5-WT peptide	activity change	29%
(+)-catechin hydrate	Genome polyprotein NS3 helicase domain	NS3 helicase DNA binding, fluorescence, Cy5-dT15		100 µM		inhibition	0%
TVB-3166	Palmitoyl-protein thioesterase 1 (Homo sapiens, UniProt P50897)	enzyme activity, inhibitor		125 µM		inhibition	7.35%
GAKGAAGPM	HLA class I histocompatibility antigen, B alpha chain	iTopia initial binding	peptide	11 µM, 18 h, 21 °C, HLA-B7 allele	baseline: allele positive control peptide	binding	59%
milbemycin oxime	CDR1 (Candida albicans, UniProt Q5ANA3)	binding, microscale thermophoresis		5 µM		fraction bound	102%
human ME2 R70K		enzyme activity, NADH absorbance		with fumarate 3 mM, together with: L-malate varied		Hill coefficient	1.13 ± 0.09
REGYEMVFDGKPQHTNVCF	HLA-DR, human	DELFIA	peptide	10 µM, 48 h, 37 °C	baseline: peptide alone	binding	> 2 fold
KEAFWDRCLSVINLMSSKMLQIQA	CDK5 with p25	phosphotransferase activity, radiometric	peptide	concentration not given, 10% DMSO, together with: histone substrate	baseline: p5-WT peptide	activity change	50%
TSAEGLLRVHARLRDSGRA	HLA-DR, human	DELFIA	peptide	10 µM, 48 h, 37 °C	baseline: peptide alone	binding	> 2 fold
pregnenolone sulfate	TRPM3 (Homo sapiens, UniProt Q9HCF6)	whole-cell patch clamp	HEK-293T expressing hTRPM3-YFP	40 µM, at +80 mV, not DTT-treated, together with: clotrimazole 10 µM		current density	9.89 ± 4.7 pA/pF
11-deoxycorticosterone	human CYP11B2	substrate, stopped-flow kinetics		4-state closed model, together with: adrenodoxin 10-fold excess		rate constant k2	1.62 min⁻¹
PGYNEWREFCGLPRLETPA	HLA-DR, human	DELFIA	peptide	10 µM, 48 h, 37 °C	baseline: peptide alone	binding	> 2 fold
CIIS	Saccharomyces cerevisiae protein farnesyltransferase	peptide prenylation, substrate, SPOT peptide library	peptide	together with: C15-Alk	baseline: random library	relative spot intensity	100%
B1	CAMK2A (Homo sapiens, UniProt Q9UQM7, D135N/E236K)	binding, ITC	kinase domain D135N/E236K			ΔH	-6.96 kcal/mol and -7.22 kcal/mol

Molecule	tested on	assay	test system	setting	scale	endpoint	value
KEAFWDRCLSVINLMSSKMIQINA	CDK5 with p25	phosphotransferase activity, radiometric	peptide	concentration not given, 10% DMSO, together with: histone substrate	baseline: p5-WT peptide	activity change	62%
maltotriose	uncharacterized protein (Pelagibacter ubique, UniProt Q4FMK2)	binding, DSF			higher = stronger binding	thermal shift	20.1 °C
LPSDFKTIL	HLA class I histocompatibility antigen, B alpha chain	iTopia initial binding	peptide	11 µM, 18 h, 21 °C, HLA-B7 allele	baseline: allele positive control peptide	binding	53%
alpinetin	MAL12 (Saccharomyces cerevisiae S288c, UniProt P53341)	enzyme activity, inhibitor		concentration not given, together with: p-NPG substrate		inhibition	0%
KEAFYDRCLSVINLMSSKMLQINA	CDK5 with p25	phosphotransferase activity, radiometric	peptide	concentration not given, 10% DMSO, together with: histone substrate	baseline: p5-WT peptide	activity change	-8%
human ME2 A65V mutant		enzyme activity, NADH absorbance		with fumarate 3 mM, together with: L-malate varied		Hill coefficient	1.17 ± 0.15
KEIANLEKEIASLEKKVAVLKQRNAAHKQEVAALRKEIAYVEDEIQYVEDE	Transcription factor MafG (Homo sapiens, UniProt O15525)	heterodimer thermal denaturation, CD	1 M GuHCl	4 µM total peptide, pH 7.4		Tm	37.9 °C
UCL 2077	Genome polyprotein NS3 helicase domain	NS3 helicase DNA binding, fluorescence, Cy5-dT15		100 µM		inhibition	0%
KEAFWDRCLSVINLMSSKMLQINL	CDK5 with p25	phosphotransferase activity, radiometric	peptide	concentration not given, 10% DMSO, together with: histone substrate	baseline: p5-WT peptide	activity change	-7%
Ivermectin	GABA-A receptor; alpha-1/beta-2/gamma-2 (Rattus norvegicus, UniProt P18508+P62813+P63138)	QP-DHM	HEK293 cells	10 µM	baseline: 10 µM GABA, direction not given	agonist score	0.85
KEAFWDRCLSVINLMSSKMLQIDA	CDK5 with p25	phosphotransferase activity, radiometric	peptide	concentration not given, 10% DMSO, together with: histone substrate	baseline: p5-WT peptide	activity change	65%
BzATP	P2X purinoceptor 7 (P2rx7, Rattus norvegicus, UniProt Q64663, Q143A/R125A)	ion current, agonist, two-electrode voltage clamp	Xenopus laevis oocytes	100 µM	baseline: highest concentration response	normalized current	1
KEAFWDRCLSVINLMSSKSLQINA	CDK5 with p25	phosphotransferase activity, radiometric	peptide	concentration not given, 10% DMSO, together with: histone substrate	baseline: p5-WT peptide	activity change	45%
YRVAAAP	VSR1, PA domain (Arabidopsis thaliana, UniProt P93026)	differential scanning fluorimetry	peptide	5 mM, pH 7.1		change in Tm	no effect
KEAFWDRCLMVINLMSSKMLQINA	CDK5 with p25	phosphotransferase activity, radiometric	peptide	concentration not given, 10% DMSO, together with: histone substrate	baseline: p5-WT peptide	activity change	17%
BODIPY-labelled L-cystine	P4HB (Homo sapiens, UniProt P07237)	substrate, steady-state kinetics				Km	1 ± 0.2 µM

Some of these lines once more:
Molecule	tested on	assay	test system	setting	scale	endpoint	value
KEAFWDRCLSVINLMSSKMLQIDA	CDK5 with p25	phosphotransferase activity, radiometric	peptide	concentration not given, 10% DMSO, together with: histone substrate	baseline: p5-WT peptide	activity change	65%
BzATP	P2X purinoceptor 7 (P2rx7, Rattus norvegicus, UniProt Q64663, Q143A/R125A)	ion current, agonist, two-electrode voltage clamp	Xenopus laevis oocytes	100 µM	baseline: highest concentration response	normalized current	1
KEAFWDRCLSVINLMSSKSLQINA	CDK5 with p25	phosphotransferase activity, radiometric	peptide	concentration not given, 10% DMSO, together with: histone substrate	baseline: p5-WT peptide	activity change	45%
YRVAAAP	VSR1, PA domain (Arabidopsis thaliana, UniProt P93026)	differential scanning fluorimetry	peptide	5 mM, pH 7.1		change in Tm	no effect
KEAFWDRCLMVINLMSSKMLQINA	CDK5 with p25	phosphotransferase activity, radiometric	peptide	concentration not given, 10% DMSO, together with: histone substrate	baseline: p5-WT peptide	activity change	17%
